# Measurements gathered from unrelated publications.
# Compare with care: the assays were run in different laboratories. Values joined by “and” are separate records of one study, mostly repeats; a detail may differ.
SMILES,organism,test,test system,conditions,how to read,quantity,result
CSCC[C@H](NC(=O)[C@H](CC(C)C)NC(=O)[C@@H](NC(=O)[C@H](Cc1ccccc1)NC(=O)[C@H](CCCCN)NC(=O)[C@H](CCCNC(=N)N)NC(=O)[C@@H](NC(=O)[C@H](Cc1ccc(O)cc1)NC(=O)[C@H](CCCNC(=N)N)NC(=O)[C@@H](N)CCCNC(=N)N)C(C)C)C(C)C)C(=O)N[C@@H](CCCNC(=N)N)C(=O)O,Micrococcus luteus,,NCTC 2665,,,MBC,32 µg/mL
CC1(C)SC2C(NC(=O)C(NC(=O)C3=C(O)C(Cc4ccsc4)NC3=O)c3ccccc3)C(=O)N2C1C(=O)O (stereo not shown),Escherichia coli,,ΔtolC JW5503-1,"200 µM, added: 30 µg/mL 2,2'-bipyridyl",,zone of inhibition,13 mm
CNCC(=O)N[C@@H](CO)C(=O)N[C@H]1[C@H](O)[C@@H](O)[C@H](n2ccc(N)nc2=O)O[C@@H]1C(N)=O,Cucumber mosaic virus,,,500 µg/mL,,inactivation activity,77% and 70% and 75%
COC(=O)C(N)Cc1ccc(OP2(=O)COC(Cn3ccc(N)nc3=O)CO2)cc1 (stereo not shown),human cytomegalovirus,viral replication,,,,IC50,200 nM
CS(=O)(=O)CCCn1c(Cn2c(=O)n(CC(F)(F)F)c3ccncc32)cc2cc(Cl)ccc21,respiratory syncytial virus,RT-qPCR,"hospitalized infants 1-24 months, nasal swab","oral, 6, 4.5 or 3 mg/kg daily, day 4, mid dose by age cohort",relative to: baseline,LS mean viral load change,-2.39 log10 copies/mL
Nc1ncnc2c1ncn2[C@@H]1O[C@@H]2COP(=O)(O)O[C@H]3[C@@H](O)[C@H](n4cnc5c(=O)[nH]cnc54)O[C@@H]3COP(=O)(O)O[C@H]2[C@H]1O,West Nile virus,"RNA sequencing Reactome analysis, refers to: Deubiquitination (R-HSA-5688426)",HFF-1,"concentration not given, upregulated pathways, added: West Nile virus infection",relative to: WNV-infected without compound,fold enrichment,2.28
COc1ccc2c(ccc3oc([N+](=O)[O-])c(OC)c32)c1,Mycobacterium marinum,REMA,ATCC BAA-535,,,MIC90,> 32 µg/mL
N=C(N)NCCC[C@H](NC(=O)[C@H](Cc1c[nH]c2ccccc12)NC(=O)[C@@H](N)CCCNC(=N)N)C(=O)N[C@@H](Cc1c[nH]c2ccccc12)C(=O)N[C@@H](Cc1ccccc1)C(=O)N[C@@H](CCC(N)=O)C(=O)N[C@@H](Cc1ccccc1)C(=O)N[C@@H](CCC(N)=O)C(=O)N[C@@H](Cc1ccccc1)C(=O)N[C@@H](CCCCN)C(N)=O,Bacillus subtilis,,,,,MBC,8.8 µM
CCCCc1ccc(CNc2nc(N(C)C)nc(N(C)C)c2/N=N/c2ccc(Cl)cc2)cc1,Plutella xylostella,leaf dipping,,12.5 mg/L,,mortality,50%
CC[C@H](C)[C@H](NC(=O)[C@H](C)NC(=O)[C@H](CCCCN)NC(=O)[C@H](CC(C)C)NC(=O)[C@H](C)NC(=O)[C@@H](NC(=O)[C@H](Cc1c[nH]cn1)NC(=O)[C@H](CC(C)C)NC(=O)[C@@H](NC(=O)[C@@H](NC(=O)[C@H](CCCCN)NC(=O)[C@H](C)NC(=O)[C@H](C)NC(=O)[C@H](CO)NC(=O)[C@H](CCCCN)NC(=O)[C@H](Cc1ccccc1)NC(=O)[C@@H](NC(=O)[C@H](CCCCN)NC(=O)[C@H](CC(C)C)NC(=O)[C@H](Cc1ccccc1)NC(=O)[C@H](CO)NC(=O)[C@H](CCCCN)NC(=O)[C@H](Cc1c[nH]c2ccccc12)NC(=O)[C@H](CCCCN)NC(C)=O)[C@@H](C)O)[C@@H](C)O)C(C)C)[C@@H](C)O)C(=O)N[C@@H](CO)C(=O)N[C@@H](CO)C(N)=O,Streptococcus pyogenes,,ATCC 13813,,,MIC range,16 µg/mL
Cn1c(=O)ccc2ccc(F)c(CCNC[C@H]3CN(c4cnc5c(n4)NC(=O)CO5)C(=O)O3)c21,Citrobacter spp.,,,,,MIC90,1 µg/mL
Cl.N=C(CC(O)c1cc2c(F)cc(F)cc2c2cc(C(F)(F)F)ccc12)Nc1ccc(Br)cc1 (stereo not shown),Plasmodium berghei,Peters 4-day test,"ANKA, mouse","oral, 10 mg/kg",,cure rate,33%
Cc1c2c(nn1C)CSCc1cc(n(C)n1)CSc1cc(c3ccccc3c1)OCCCc1c(C(=O)O)n(C)c3c-2c(Cl)ccc13,Staphylococcus aureus,"label-free quantitative proteomics, refers to: SAOUHSC_01835 protein",SA113,concentration not given,relative to: untreated control,fold change,7.67
